{"data": "Results from different studies", "note": "Lines come from different studies, so protocols differ. ± marks the error that the study gave."}
{"Compound": "Clc1ccc(Cl)c(-c2c(Cl)ccc(Cl)c2Cl)c1Cl", "cell line": "differentiated HepaRG", "assay": "CAR activation, agonist, item: CYP2B6 mRNA", "setting": "24 h", "scale": "baseline: phenobarbital 2 mM", "endpoint": "EC50", "result": "6.6 µM"}
{"Compound": "O=c1[nH]c(=O)n([C@H]2C[C@H](O)[C@@H](CO)O2)cc1/C=C/Br", "cell line": "HEL embryonic lung fibroblasts", "assay": "cell morphology, microscopy", "endpoint": "minimum cytotoxic concentration", "result": "> 300 µM"}
{"Compound": "CC(C)(c1ccc(O)cc1)c1ccc(O)cc1", "cell line": "human iPSC-derived cardiomyocytes", "assay": "mitochondrial membrane potential, item: JC-10 granules", "setting": "30 min", "endpoint": "point of departure", "result": "< 30 µM"}
{"Compound": "CCC(CC)COC(=O)[C@H](C)N[P@](=O)(OC[C@H]1O[C@@](C#N)(c2ccc3c(N)ncnn23)[C@H](O)[C@@H]1O)Oc1ccccc1", "cell line": "Huh-7", "setting": "7 days, uninfected, qPCR assay format", "endpoint": "CC50", "result": "13.4 µM"}
{"Compound": "O=Cc1cc(Cn2cc(F)c(=O)[nH]c2=O)ccc1O", "cell line": "HEL fibroblasts", "assay": "cell morphology alteration", "endpoint": "minimum cytotoxic concentration", "result": "> 100 µM"}
{"Compound": "CCCCN(CCCC)N=O", "cell line": "HepaRG spheroids", "assay": "micronucleus formation, flow cytometry", "setting": "24 h", "scale": "baseline: vehicle control", "endpoint": "lowest effective concentration", "result": "500 µM"}
{"Compound": "C[C@H](Cn1cnc2c(N)ncnc21)OCP(=O)(O)O", "cell line": "hCMEC/D3", "setting": "10 µM, 1 h", "endpoint": "intracellular concentration", "result": "0.64 ± 0.17 ng/mL"}
{"Compound": "CCc1ccc(NC(=O)c2cc3c(=O)n4ccccc4nc3n2C)cc1", "cell line": "Vero E6", "assay": "MTT", "endpoint": "IC50", "result": "21.6 ± 1.64 µM"}
{"Compound": "CON=C(N)c1ccc(-c2ccc(-c3ccc(C(N)=NOC)cc3)o2)cc1", "cell line": "HEK293T transfected with CYP1B1", "assay": "cytotoxicity, resazurin", "setting": "72 h, without α-naphthoflavone", "endpoint": "IC50", "result": "57.6 ± 1.6 µM"}
{"Compound": "CCS(=O)(=O)N1CCC2(CC1)N=C(N)N=C(N)N2CCOC", "cell line": "MDCK", "assay": "microscopy, altered cell morphology", "endpoint": "minimum cytotoxic concentration", "result": "> 100 µM"}
{"Compound": "CC[C@H](C)[C@H](NC(=O)[C@H](CCCNC(=N)N)NC(=O)[C@@H](NC(=O)[C@H](CO)NC(=O)[C@@H](NC(=O)[C@H](CCC(N)=O)NC(=O)[C@H](CS)NC(=O)[C@H](CCCCN)NC(=O)[C@@H](N)CCCNC(=N)N)[C@@H](C)CC)C(C)C)C(=O)N[C@@H](CCCNC(=N)N)C(=O)N[C@@H](CC(N)=O)C(=O)N[C@@H](CCCNC(=N)N)C(=O)N[C@@H](CCCNC(=N)N)C(=O)N[C@@H](C)C(=O)N[C@@H](CC(N)=O)C(=O)N[C@H](C(=O)N[C@@H](CCCCN)C(=O)N[C@H](C(=O)N[C@@H](CO)C(=O)N[C@@H](CS)C(=O)N[C@@H](CC(N)=O)C(=O)O)[C@@H](C)CC)[C@@H](C)CC", "cell line": "human red blood cells", "setting": "128 µg/mL, 3 h, 37 °C", "scale": "baseline: Triton X-100", "endpoint": "hemolysis", "result": "-0.11%"}
{"Compound": "C[C@@H]1CCO[C@H]2Cn3cc(C(=O)NCc4ccc(F)cc4F)c(=O)c(O)c3C(=O)N12", "cell line": "hCMEC/D3", "setting": "5 µM, 1 h", "endpoint": "intracellular concentration", "result": "14.2 ± 0.62 ng/mL"}
{"Compound": "C=C(C[C@H](N)C(=O)O)C(=O)NC1CC1", "cell line": "MDA-MB-231", "setting": "24 h", "scale": "baseline: vehicle", "endpoint": "concentration increasing cytotoxicity", "result": "320 µM"}
{"Compound": "CCN(CC)N=O", "cell line": "HepaRG 3D spheroids", "assay": "cell viability", "setting": "concentration not given, 24 h", "scale": "baseline: vehicle", "endpoint": "ATP level", "result": "89.6%"}
{"Compound": "CNC(=O)Oc1cccc2ccccc12", "cell line": "human iPSC-derived cardiomyocytes", "assay": "mitochondrial membrane potential, item: JC-10 granules", "setting": "30 min", "endpoint": "point of departure", "result": "< 30 µM"}
{"Compound": "CC[C@H](C)[C@H](NC(=O)[C@H](CCCNC(=N)N)NC(=O)[C@H](CC(C)C)NC(=O)[C@@H](NC(=O)[C@H](CO)NC(=O)[C@H](CC(C)C)NC(=O)[C@@H](NC(=O)[C@H](CCCCN)NC(=O)[C@H](CO)NC(=O)[C@H](CC(C)C)NC(=O)[C@@H](N)Cc1ccccc1)[C@@H](C)CC)[C@@H](C)O)C(=O)N[C@@H](CC(C)C)C(=O)N[C@@H](Cc1ccccc1)C(N)=O", "cell line": "human red blood cells", "assay": "hemolysis", "setting": "1 h, 37 °C", "endpoint": "HC50", "result": "25 µM"}
{"Compound": "CC(=O)OC[C@H]1O[C@@H](NC(=O)NC(=O)COc2ccc(-c3ccccc3)cc2)[C@H](OC(C)=O)[C@@H](OC(C)=O)[C@@H]1OC(C)=O", "cell line": "HEL fibroblasts", "assay": "cell morphology", "setting": "3 days", "endpoint": "minimal cytotoxic concentration", "result": "> 100 µM"}
{"Compound": "COc1cc2c(c(OC)c1OC)-c1c(cc3c(c1OC)OCO3)CC(C)C(C)C2 (stereo not shown)", "cell line": "HepG2", "assay": "LDH leakage", "system": "RPMI, 10% FBS", "setting": "48 h, added: phenobarbital (CYP450 inducer)", "endpoint": "LD50", "result": "21 µM"}
{"Compound": "CSCCC(NS(=O)(=O)NCc1cccc(Oc2ccccc2)c1)C(=O)NCCN1CCOCC1.Cl (racemic)", "cell line": "HG23 norovirus replicon cells", "setting": "48 h", "endpoint": "TD50", "result": "230 ± 34 µM"}
{"note": "For quick reference, copied from above:"}
{"Compound": "CC(=O)OC[C@H]1O[C@@H](NC(=O)NC(=O)COc2ccc(-c3ccccc3)cc2)[C@H](OC(C)=O)[C@@H](OC(C)=O)[C@@H]1OC(C)=O", "cell line": "HEL fibroblasts", "assay": "cell morphology", "setting": "3 days", "endpoint": "minimal cytotoxic concentration", "result": "> 100 µM"}
